Results pooled from the literature.
Each line is one published result; not all experiments were run side by side. ± gives the spread as reported. In brackets after ≈: the same amount, converted by molar mass.

The logD of O=C(NO)[C@H]1COC(c2ccc(F)c(C(F)(F)F)c2)=N1 is reported as -0.21 (octanol/buffer; pH 11).
For O=C(OC(C(F)(F)F)C(F)(F)F)N1Cc2ccc(Br)cc2C1, the plasma concentration was 0.114 ± 0.015 µg/mL (male CD-1 mouse, plasma; intravenous, 2 mg/kg, 15 min, cassette dosing).
With CN(Cc1cccnc1)c1ccc2c(c1)c(=O)c(C(N)=O)cn2-c1ccc(F)cc1 the unbound fraction was 0.082 (rat, plasma).
CC(C)n1nnc(-c2cc(O)cc(Nc3ncnn4ccc(CN5CCC(N)CC5)c34)c2)n1 — result for “free plasma concentration”: 27 nM (from plasma protein binding; mouse, plasma; subcutaneous, 30 mg/kg, 90 min).
For CCCSc1nc(N[C@@H]2C[C@H]2c2ccc(F)c(F)c2)c2nnn([C@@H]3C[C@H](O)[C@@H](O)[C@H]3O)c2n1, the AUC was 7.2 µmol·h/L (rat, female, plasma; oral, 20 mg/kg/day ticagrelor, week 26).
For Cc1cc(NC(=O)c2cccc(NC(=O)C3=CC(C)(C)CCC3=O)c2)ccc1Nc1nccc(-c2cccnc2)n1, the compound remaining was 98.4% (rat plasma; 1 µM, 120 min).
COc1ccc(-n2cc(C(N)=O)c(=O)c3cc(CCc4cnc(C)nc4)ccc32)cc1 has an unbound fraction of 0.098 (rat, plasma).
The Cmax of O=C1Nc2cccc(C#CC3(O)CCNCC3)c2/C1=C/c1cc2ccccc2[nH]1 is reported as roughly 2000 nM (C57BL/6 mouse, plasma; intraperitoneal, 10 mg/kg).
For Cc1ncc(CCc2ccc3c(c2)c(=O)c(C(N)=O)cn3-c2ccc(F)cc2)cn1, the concentration was 122 nM (rat, plasma; iv, 0.2 mg/kg, 15 min, cassette dosing).
For CCCCN(CCc1ccc(Cl)c(Cl)c1)C[C@H](O)COc1ccc(NS(C)(=O)=O)cc1, “horizontal locomotor activity” read “no effect” (rat; intraperitoneal, up to 300 mg/kg, 1 h habituation then two hours; reference: vehicle).
The intrinsic clearance of O=C(NC1CC=C(c2cc3c(Nc4cc5ncsc5cc4F)ncnc3s2)CC1)NC1CCCCC1 (centres unmarked) is reported as less than 12 mL/min/g protein (human liver microsomes; 1 µM).
For CCCn1c(NCc2cccc(Cl)c2O)nc2ccccc21, the half-life was 3.7 min (mouse, liver microsomes; 1 µM, 37 °C, added: NADPH).
COc1ccc(CC(=O)OCc2ccc(-n3cccn3)cc2)cc1F has a Cmax of 3020 ng/mL (BALB/c mouse, plasma; oral, 10 mg/kg).
Cc1ncc(OCc2ccc3c(c2)c(=O)c(C(N)=O)cn3-c2ccc(F)cc2)cn1 gave an unbound fraction of 0.109 (rat, plasma).
O=C(NO)C1CSC(c2ccc(F)cc2)=N1 (centres unmarked) has a logD of -0.51 (octanol/buffer; pH 11).
The remaining compound of Clc1ccc(-c2cc(NCCCN3CCCCC3)c3ccccc3n2)cc1 is reported as 23.9% (human liver microsomes; 1 h).
Cc1n[nH]c(C)c1CCOC(=O)c1cccc2c1oc(=O)n2C gave a kinetic solubility of greater than 100 µM (PBS, 1% DMSO; pH 7.4).
The concentration of NC(=O)c1cn(-c2ccc(F)cc2)c2ccc(NCc3cccnc3)cc2c1=O is reported as 3 nM (rat, brain; iv, 0.2 mg/kg, 15 min, cassette dosing).
CCOc1ccccc1Nc1nnc(SCC(=O)Nc2cc(F)ccc2F)s1 gave a logD of 3.1 (pH 7.4).
Under plasma level, Cc1c(-c2ccccc2)nn2c(=O)cc(-c3cccc(-c4nnn[nH]4)c3)[nH]c12 is recorded as “not detected” (mouse; 2 mg/kg, 10 h).
With CC[C@H](C)[C@H](NC(=O)[C@H](Cc1ccccc1)NC(=O)[C@H](CC(=O)O)NC(=O)[C@H](CCCNC(=N)N)NC(=O)[C@H](Cc1ccccc1)NC(=O)[C@H](Cc1ccccc1)NC(=O)[C@H](CCCCN)NC(=O)[C@H](CO)NC(=O)[C@H](CC(C)C)NC(=O)[C@H](CCCNC(=N)N)NC(=O)[C@H](CCSC)NC(=O)[C@H](C)N)C(=O)N[C@@H](CC(C)C)C(=O)N[C@@H](CCC(N)=O)C(=O)N[C@@H](CCCNC(=N)N)C(=O)N[C@@H](CCCCN)C(=O)N[C@@H](CCCCN)C(=O)O the helicity was 18.8% (circular dichroism; 20% TFE in PBS; 200 µM, pH 7.4, 25 °C).
The dose-normalised AUC(0-last) of CC(=NN=c1[nH]c2cc(F)c(F)cc2n1C)c1ccc(F)cn1 is reported as 172 mg·h/mL (plasma; oral, 10 mg/kg).
O=C(O)c1cccc(-c2nc(-c3ccccc3F)c3sccn23)c1 gave a remaining compound of 38% (mouse liver microsomes; 1 µM, 30 min).
The unbound fraction of NC(=O)c1cn(-c2ccc(F)cc2)c2ccc(CCc3ccncc3)cc2c1=O is reported as 0.057 (rat, plasma).
The Cmax of Nc1ncc(-c2ccc3ncnc(N4CCc5cc(F)c(Cl)cc54)c3c2)cn1 is reported as 13300 ng/mL (CD1 mouse, brain; intraperitoneal, 50 mg/kg).
With CC(C)n1nnc(-c2cccc(Nc3ncnn4ccc(CN5CCC(N)CC5)c34)c2)n1 the aqueous solubility was greater than 7.96 mg/mL (pH 6.5).
With NC(=O)c1cn(-c2ccc(F)cc2)c2ccc(CN3CCCS(=O)(=O)CC3)cc2c1=O the unbound fraction was 0.253 (rat, plasma).
Cc1cc(SCc2sc(-c3ccc(OC(F)(F)F)cc3)nc2C)ccc1OCC(=O)O gave a CC50 of greater than 50 µM (HEK293T; 18 h).
COCCOc1ccc2nc(-c3cn(-c4ccc(O)cc4)nn3)ccc2c1 gave an aqueous solubility of 9.9 µM (shake-flask; Britton-Robinson buffer; 48 h, pH 6.5, 30 °C).
For CCCc1ccc(-c2ccc(C3=N[C@@H](C(=O)NO)CO3)cc2)cc1, the solubility was less than 3.48 mg/mL (aqueous buffer; pH 7.4).
NC1CCN(Cc2ccn3ncnc(Nc4cccc(-c5cnco5)c4)c23)CC1: “total plasma concentration” 8.4 µM (mouse, plasma; intraperitoneal, 30 mg/kg, 90 min).
O=C(NO)[C@H]1COC(c2ccc([N+](=O)[O-])cc2)=N1 has a solubility of 30.2 mg/mL (≈ 120 mM) (aqueous buffer; pH 7.4).
Under “absorption maximum wavelength”, CCN(CC)c1ccc2c(-c3ccccc3C(=O)N(C)CCCC(=O)N[C@@H](CC(C)C)C(=O)N[C@@H](CCCNC(=N)N)C(=O)N[C@@H](CCCNC(=N)N)C(=O)N[C@@H](C)C(=O)N[C@@H](CO)C(=O)N[C@@H](CC(C)C)C(=O)NCC(=O)O)c3ccc(=[N+](CC)CC)cc-3oc2c1 is recorded as 566 nm (UV/Vis; phosphate buffer 25 mM; 100 µM, pH 7.4).
With Cc1cc(SCc2sc(-c3cc(Cl)cc(Cl)c3)nc2C)ccc1OCC(=O)O the CC50 was greater than 50 µM (HEK293T; 18 h).
CN(C)S(=O)(=O)c1ccc(NCCCCCCN2CCC(Nc3nc4ccccc4n3Cc3ccc(F)cc3)CC2)c2nonc12 gave an emission wavelength of 579 nm.

Repeated from above:
NC1CCN(Cc2ccn3ncnc(Nc4cccc(-c5cnco5)c4)c23)CC1: “total plasma concentration” 8.4 µM (mouse, plasma; intraperitoneal, 30 mg/kg, 90 min).
O=C(NO)[C@H]1COC(c2ccc([N+](=O)[O-])cc2)=N1 has a solubility of 30.2 mg/mL (≈ 120 mM) (aqueous buffer; pH 7.4).
